Measurements gathered from unrelated publications.
Each line is one published result; not all experiments were run side by side. Numbers after ± are the reported error.

The IC50 of `O=C1CCc2ccc(NS(=O)(=O)c3cccc(Oc4ccccc4)c3)cc2N1` is reported as 0.0041 µM (BV-2; PGE2 release, inhibitor; LPS-stimulated).
For `COc1ccc2nc(Cl)c(-c3nc4ccccc4[nH]3)cc2c1`, the IC50 was > 100 µM (BEL-7404; cell growth or viability, MTT; 48 h).
With `O=C(/C=C/c1ccc(-c2ccccc2)cc1)NC(=O)N[C@@H]1O[C@H](CO)[C@@H](O)[C@H](O)[C@H]1O` the IC50 was 141 µM (human T-lymphocyte; cell growth or viability; 72 h).
`CCN(CC)CCCOc1ccc(-c2ccc3[nH]c4ncc(/C=C/c5ccccc5)cc4c3c2)cc1` has an IC50 of 0.54 µM (Ba/F3 NPM-ALK; cell proliferation, [3H]-thymidine incorporation).
`COc1c(O)cc2oc3c(Cl)c(O)c(CC=C(C)C)c(O)c3c(=O)c2c1CC=C(C)C` gave an IC50 of 34.7 µM (SMMC-7721; cell growth or viability; 48 h).
The IC50 of `CC[C@@]12CCc3[nH]c4ccccc4c3CCN(C[C@H]3O[C@H]31)C2` is reported as 56.7 µM (BV-2; cell growth or viability, MTT).
`COc1ccc(Cn2cc(COc3c(OC)ccc4cc5[n+](cc34)CCc3cc4c(cc3-5)OCO4)nn2)cc1` has an IC50 of 17.4 µM (SMMC-7721; cell growth or viability, MTT).
The IC50 of `COc1cccc2c1C(=O)c1c(O)c3c(c(O)c1C2=O)C[C@@](O)(C(=O)CO)C[C@@H]3O[C@H]1C[C@H](N)[C@H](O)[C@H](C)O1` is reported as ~0.1 µM (human dermal fibroblasts; cytotoxicity, MTT; 72 h).
`CCCn1c(-c2cccnc2)nc(-c2ccc(C)cc2)c1-c1ccc(C)cc1` has an IC50 of 72.5 µM (BT-474; cell growth or viability, SRB; 48 h).
For `COc1ccc2cc3[n+](cc2c1OCc1cn(Cc2ccc(C(C)(C)C)cc2)nn1)CCc1cc2c(cc1-3)OCO2`, the IC50 was 11.9 µM (SMMC-7721; cell growth or viability, MTT).
`CC(=O)c1cnc(N)nc1N1CC[C@H]1c1nn2ccc(Cl)c2c(=O)n1-c1ccccc1` gave an IC50 of 0.009 µM (CD4+ T; IL-2 release, inhibitor).
With `Clc1nc2ccccc2cc1-c1nc2cc(Br)ccc2[nH]1` the IC50 was 30 µM (BEL-7404; cell growth or viability, MTT; 48 h).
The IC50 of `NC(=O)CNC(=O)[C@@H]1CCCN1C(=O)[C@H](Cc1ccc(O)cc1)NC(=O)[C@H](Cc1c[nH]c2ccccc12)NC(=O)[C@@H](Cc1c[nH]c2ccccc12)NC(=O)[C@H](Cc1c[nH]cn1)NC(=O)[C@H](CO)NC(=O)[C@H](Cc1c[nH]c2ccccc12)NC(=O)[C@H](Cc1c[nH]cn1)NC(=O)[C@@H]1CCC(=O)N1` is reported as 0.0023 ± 0.0009 µM (WPE-1-NB26-3; cell growth, inhibitor, sulforhodamine B staining; four days).
With `CC(C)c1cccc(C(C)C)c1[N+]#[C][Pd-]([Cl])([Cl])=[C](Nc1cccc(CN[C](NC(C)(C)C)=[Au][Cl])c1)Nc1c(C(C)C)cccc1C(C)C` the IC50 was > 100 µM (MRC5; cell growth or viability).

For quick reference, copied from above:
`CCN(CC)CCCOc1ccc(-c2ccc3[nH]c4ncc(/C=C/c5ccccc5)cc4c3c2)cc1` has an IC50 of 0.54 µM (Ba/F3 NPM-ALK; cell proliferation, [3H]-thymidine incorporation).
